Assay results pooled from the literature.
Every numbered part comes from another study and shows a few of its results, in no order.
Sequence of UniProt P42681 (whole entry, looked up): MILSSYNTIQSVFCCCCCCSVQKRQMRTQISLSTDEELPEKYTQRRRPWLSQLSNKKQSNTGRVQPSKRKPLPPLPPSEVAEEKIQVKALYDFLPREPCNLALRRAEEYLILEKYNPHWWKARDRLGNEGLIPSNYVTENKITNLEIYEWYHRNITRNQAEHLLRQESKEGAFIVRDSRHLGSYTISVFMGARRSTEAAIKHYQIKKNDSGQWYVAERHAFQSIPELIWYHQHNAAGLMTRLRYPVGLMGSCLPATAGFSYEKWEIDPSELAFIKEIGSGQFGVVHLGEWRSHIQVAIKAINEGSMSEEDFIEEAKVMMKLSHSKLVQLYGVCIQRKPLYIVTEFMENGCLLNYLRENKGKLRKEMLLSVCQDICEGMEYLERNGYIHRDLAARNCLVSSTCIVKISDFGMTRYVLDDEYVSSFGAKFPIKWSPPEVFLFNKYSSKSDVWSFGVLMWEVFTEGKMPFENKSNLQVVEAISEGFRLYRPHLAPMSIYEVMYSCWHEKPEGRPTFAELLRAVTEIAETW
Sequence of UniProt Q02750 (whole entry, looked up): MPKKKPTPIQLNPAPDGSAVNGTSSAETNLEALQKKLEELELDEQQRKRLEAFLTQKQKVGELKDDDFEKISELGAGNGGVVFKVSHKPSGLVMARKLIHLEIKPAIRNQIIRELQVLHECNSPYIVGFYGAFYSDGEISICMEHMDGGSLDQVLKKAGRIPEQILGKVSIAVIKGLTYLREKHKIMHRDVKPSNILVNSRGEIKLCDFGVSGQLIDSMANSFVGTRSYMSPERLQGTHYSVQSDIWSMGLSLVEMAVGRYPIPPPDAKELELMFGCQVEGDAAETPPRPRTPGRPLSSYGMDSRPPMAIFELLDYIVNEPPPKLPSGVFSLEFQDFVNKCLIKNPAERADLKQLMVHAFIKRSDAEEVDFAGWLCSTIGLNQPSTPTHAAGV
Sequence of UniProt P08581 (whole entry, looked up): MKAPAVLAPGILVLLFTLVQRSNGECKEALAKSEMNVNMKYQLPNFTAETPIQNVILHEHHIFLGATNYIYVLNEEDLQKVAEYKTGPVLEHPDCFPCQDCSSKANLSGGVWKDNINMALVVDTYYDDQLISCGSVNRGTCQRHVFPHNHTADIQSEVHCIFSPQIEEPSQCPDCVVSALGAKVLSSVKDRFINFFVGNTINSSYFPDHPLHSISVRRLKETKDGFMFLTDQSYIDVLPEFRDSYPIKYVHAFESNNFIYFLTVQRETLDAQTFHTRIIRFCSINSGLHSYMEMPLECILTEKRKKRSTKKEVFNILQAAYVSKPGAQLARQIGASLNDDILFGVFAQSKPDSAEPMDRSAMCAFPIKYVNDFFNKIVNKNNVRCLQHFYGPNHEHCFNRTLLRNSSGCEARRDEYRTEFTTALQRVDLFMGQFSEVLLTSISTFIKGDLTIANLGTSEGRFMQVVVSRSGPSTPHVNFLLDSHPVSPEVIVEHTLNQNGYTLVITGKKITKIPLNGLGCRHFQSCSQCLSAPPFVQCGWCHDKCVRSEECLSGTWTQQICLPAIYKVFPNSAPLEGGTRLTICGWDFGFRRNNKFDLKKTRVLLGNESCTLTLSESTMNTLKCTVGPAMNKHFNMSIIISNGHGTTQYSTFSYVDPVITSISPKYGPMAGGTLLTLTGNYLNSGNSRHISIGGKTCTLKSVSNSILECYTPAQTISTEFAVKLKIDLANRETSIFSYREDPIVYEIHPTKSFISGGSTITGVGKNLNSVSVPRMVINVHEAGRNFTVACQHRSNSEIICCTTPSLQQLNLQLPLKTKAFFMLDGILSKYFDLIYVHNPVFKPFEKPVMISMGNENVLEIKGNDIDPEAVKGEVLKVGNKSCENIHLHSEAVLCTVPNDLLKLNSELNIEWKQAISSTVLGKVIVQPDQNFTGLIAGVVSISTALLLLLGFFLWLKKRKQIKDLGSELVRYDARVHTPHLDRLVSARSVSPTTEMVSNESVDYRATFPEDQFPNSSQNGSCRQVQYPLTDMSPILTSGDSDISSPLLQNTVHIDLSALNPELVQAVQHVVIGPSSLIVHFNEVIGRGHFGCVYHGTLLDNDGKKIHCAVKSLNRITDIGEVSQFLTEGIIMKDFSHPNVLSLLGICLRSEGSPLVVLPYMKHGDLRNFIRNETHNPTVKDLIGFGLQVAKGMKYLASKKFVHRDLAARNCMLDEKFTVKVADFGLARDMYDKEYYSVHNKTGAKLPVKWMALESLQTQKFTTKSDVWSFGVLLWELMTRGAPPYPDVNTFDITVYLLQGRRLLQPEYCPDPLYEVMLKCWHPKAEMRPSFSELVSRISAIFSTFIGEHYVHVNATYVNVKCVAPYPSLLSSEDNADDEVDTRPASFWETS
Sequence of UniProt Q6P2M8 (whole entry, looked up): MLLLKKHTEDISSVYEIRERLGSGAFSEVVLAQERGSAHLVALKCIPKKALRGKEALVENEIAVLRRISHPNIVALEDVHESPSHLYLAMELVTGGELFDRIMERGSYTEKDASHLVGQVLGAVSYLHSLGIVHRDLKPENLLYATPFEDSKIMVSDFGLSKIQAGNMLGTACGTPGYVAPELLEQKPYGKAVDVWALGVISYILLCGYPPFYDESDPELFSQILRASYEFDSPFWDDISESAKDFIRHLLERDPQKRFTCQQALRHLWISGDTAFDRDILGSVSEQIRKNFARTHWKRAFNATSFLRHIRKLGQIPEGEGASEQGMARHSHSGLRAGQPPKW
Sequence of UniProt Q15759 (whole entry, looked up): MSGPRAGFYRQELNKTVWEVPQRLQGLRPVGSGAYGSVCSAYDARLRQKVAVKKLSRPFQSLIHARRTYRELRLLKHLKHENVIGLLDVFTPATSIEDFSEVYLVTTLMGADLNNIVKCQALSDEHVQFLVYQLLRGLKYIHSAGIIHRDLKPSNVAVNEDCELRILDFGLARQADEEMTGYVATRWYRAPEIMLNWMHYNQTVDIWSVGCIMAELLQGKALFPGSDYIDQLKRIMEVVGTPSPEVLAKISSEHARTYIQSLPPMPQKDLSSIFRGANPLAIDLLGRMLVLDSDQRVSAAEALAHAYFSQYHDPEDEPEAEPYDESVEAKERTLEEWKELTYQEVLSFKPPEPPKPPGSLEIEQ
Sequence of UniProt O00444 (whole entry, looked up): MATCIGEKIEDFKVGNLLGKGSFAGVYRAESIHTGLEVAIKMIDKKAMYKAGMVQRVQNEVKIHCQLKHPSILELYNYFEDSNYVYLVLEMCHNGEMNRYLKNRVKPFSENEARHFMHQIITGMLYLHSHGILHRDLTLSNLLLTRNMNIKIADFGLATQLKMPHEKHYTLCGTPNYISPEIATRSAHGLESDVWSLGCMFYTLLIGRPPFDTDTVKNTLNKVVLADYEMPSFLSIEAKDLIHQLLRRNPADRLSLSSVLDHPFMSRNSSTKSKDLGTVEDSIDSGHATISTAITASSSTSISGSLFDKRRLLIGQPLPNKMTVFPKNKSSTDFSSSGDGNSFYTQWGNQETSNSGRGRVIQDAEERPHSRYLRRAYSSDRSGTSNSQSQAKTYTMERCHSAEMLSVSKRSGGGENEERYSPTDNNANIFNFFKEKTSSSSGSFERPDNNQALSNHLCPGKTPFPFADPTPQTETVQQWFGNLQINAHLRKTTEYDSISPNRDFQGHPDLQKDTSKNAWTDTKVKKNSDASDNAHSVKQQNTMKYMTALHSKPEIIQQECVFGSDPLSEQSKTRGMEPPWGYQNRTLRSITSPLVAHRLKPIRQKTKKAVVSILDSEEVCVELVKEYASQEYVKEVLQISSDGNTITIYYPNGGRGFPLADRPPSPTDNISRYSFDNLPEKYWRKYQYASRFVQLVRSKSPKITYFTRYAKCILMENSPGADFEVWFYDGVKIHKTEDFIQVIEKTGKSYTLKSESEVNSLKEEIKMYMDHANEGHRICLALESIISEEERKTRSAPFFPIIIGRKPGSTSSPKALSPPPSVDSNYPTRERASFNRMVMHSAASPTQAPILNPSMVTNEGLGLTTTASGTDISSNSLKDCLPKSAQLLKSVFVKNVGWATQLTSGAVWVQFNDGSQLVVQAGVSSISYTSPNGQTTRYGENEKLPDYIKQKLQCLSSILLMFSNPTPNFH
Sequence of UniProt Q96L34 (whole entry, looked up): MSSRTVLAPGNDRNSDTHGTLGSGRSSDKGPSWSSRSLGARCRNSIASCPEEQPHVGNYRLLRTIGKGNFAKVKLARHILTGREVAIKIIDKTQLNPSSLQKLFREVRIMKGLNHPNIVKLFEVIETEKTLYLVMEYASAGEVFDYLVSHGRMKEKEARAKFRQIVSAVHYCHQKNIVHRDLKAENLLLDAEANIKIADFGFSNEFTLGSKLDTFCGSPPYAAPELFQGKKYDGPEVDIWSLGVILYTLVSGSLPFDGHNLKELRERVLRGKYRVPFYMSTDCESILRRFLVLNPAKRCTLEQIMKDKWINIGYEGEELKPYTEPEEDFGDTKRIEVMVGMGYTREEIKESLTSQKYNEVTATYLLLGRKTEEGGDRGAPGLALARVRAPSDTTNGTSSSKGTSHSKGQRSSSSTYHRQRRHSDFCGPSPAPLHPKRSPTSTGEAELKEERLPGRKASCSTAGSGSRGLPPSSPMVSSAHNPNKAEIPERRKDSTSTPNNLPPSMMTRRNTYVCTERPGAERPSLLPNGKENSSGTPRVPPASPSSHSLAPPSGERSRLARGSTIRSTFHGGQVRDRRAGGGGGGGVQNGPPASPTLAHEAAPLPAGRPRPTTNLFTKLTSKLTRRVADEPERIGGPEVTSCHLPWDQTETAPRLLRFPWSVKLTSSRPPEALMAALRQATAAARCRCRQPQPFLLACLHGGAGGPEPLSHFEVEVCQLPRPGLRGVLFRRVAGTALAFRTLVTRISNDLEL

Block 1
SMILES: C[C@@H]1CN(c2cc(-c3nn(C)c4ccc(OC5(C)CC5)cc34)ncn2)C[C@H](C)O1
Read-out: cell-free assay
Technique: competition with immobilised ligand
Tested at: 1 µM
The remaining binding was 79% (HIPK4 (Homo sapiens, UniProt Q8NE63)).
The remaining binding was 65% (PLK4 (Homo sapiens, UniProt O00444)).
The remaining binding was 100% (BRSK2 (Homo sapiens, UniProt Q8IWQ3)).
For FLT3 (Homo sapiens, UniProt P36888, F691L/ITD): remaining binding read 87%.
For Ribosomal protein S6 kinase alpha-6, N-terminal kinase domain (RPS6KA6, Homo sapiens, UniProt Q9UK32): remaining binding read 78%.
It gave 81% for remaining binding (STK17A (Homo sapiens, UniProt Q9UEE5)).
The remaining binding was 59% (ULK2 (Homo sapiens, UniProt Q8IYT8)).
The remaining binding was 100% (GRK1 (Homo sapiens, UniProt Q15835)).

Block 2
Cell line: A-375
Tested at: 100 µM
Time: 18 h
`O=C1O[C@H]([C@@H](O)CO)C(O)=C1O` has a viability of 100%.
The viability of `Oc1cc(O)cc(/C=C/c2ccc(O)c(O)c2)c1` is reported as 81.2%.
`COC(=O)C1=CO[C@@H](O[C@@H]2O[C@H](CO)[C@@H](O)[C@H](O)[C@H]2O)[C@@H]2[C@@H](C)[C@@H](O)C[C@H]12` gave a viability of 112%.
The viability of `CN(C)CCCOc1nn(Cc2ccccc2)c2ccccc12` is reported as 66.9%.
The viability of `CC(=O)Nc1cccc(-n2c(=O)n(C3CC3)c(=O)c3c(Nc4ccc(I)cc4F)n(C)c(=O)c(C)c32)c1` is reported as 87.1%.
`COc1ccnc(C[S+]([O-])c2nc3cc(-n4cccc4)ccc3[nH]2)c1C` (stereo not shown) has a viability of 82%.
`CO[C@H]1C[C@@H]2CC[C@@H](C)[C@@](O)(O2)C(=O)C(=O)N2CCCC[C@H]2C(=O)O[C@H]([C@H](C)C[C@@H]2CC[C@@H](O)[C@H](OC)C2)CC(=O)[C@H](C)/C=C(\C)[C@@H](O)[C@@H](OC)C(=O)[C@H](C)C[C@H](C)/C=C/C=C/C=C/1C` gave a viability of 35.5%.
The viability of `c1cnc2cc3c(cc2n1)[C@@H]1CNC[C@H]3C1` is reported as 96.2%.
`C[C@@H]1C/C=C/C=C/C=C/C=C/[C@H](O[C@@H]2O[C@H](C)[C@@H](O)[C@H](N)[C@@H]2O)C[C@@H]2O[C@](O)(C[C@@H](O)C[C@H]3O[C@@H]3/C=C/C(=O)O1)C[C@H](O)[C@H]2C(=O)O` has a viability of 110%.
`COc1ccc([C@@H]2CC(=O)c3c(O)cc(O[C@@H]4O[C@H](CO[C@@H]5O[C@@H](C)[C@H](O)[C@@H](O)[C@H]5O)[C@@H](O)[C@H](O)[C@H]4O)cc3O2)cc1OC` has a viability of 98%.

Block 3
SMILES: CNc1cc2c(Nc3cccc(Br)c3)ncnc2cn1
Read-out: enzyme activity
Action: inhibitor
Tested at: 0.5 µM
Reference: control
For NEK3 (Homo sapiens, UniProt P51956): remaining activity read 101%.
MARK2 (Homo sapiens, UniProt Q7KZI7) — remaining activity: 90.9%.
It gave 84.5% for remaining activity (MARK4 (Homo sapiens, UniProt Q96L34)).
For MAPK14 (Homo sapiens, UniProt Q16539): remaining activity read 90%.
TXK (Homo sapiens, UniProt P42681) — remaining activity: 79.9%.
The remaining activity was 90.4% (DCLK2 (Homo sapiens, UniProt Q8N568)).
For MAP2K1 (Homo sapiens, UniProt Q02750): remaining activity read 74.6%.
TLK2 (Homo sapiens, UniProt Q86UE8) — remaining activity: 114%.
For PAK3 (Homo sapiens, UniProt O75914): remaining activity read 98.8%.
MAPK11 (Homo sapiens, UniProt Q15759) — remaining activity: 115%.
PNCK (Homo sapiens, UniProt Q6P2M8) — remaining activity: 100%.
The remaining activity was 107% (CDC42BPB (Homo sapiens, UniProt Q9Y5S2)).
MET (Homo sapiens, UniProt P08581) — remaining activity: 106%.
For PRKG2 (Homo sapiens, UniProt Q13237): remaining activity read 102%.

Block 4
Organism: Plasmodium berghei
Action: inhibitor
Cell line: Huh-7
Strain: GFP-expressing sporozoites, liver stage
Tested at: 10 µM
Time: 24 h
Reference: untreated control
With `CN(C)CCOC(c1ccc(Cl)cc1)c1ccccn1` (stereo not shown) the infection rate was 129%.
With `CN(C)CCC=C1c2ccccc2C=Cc2ccccc21` the infection rate was 96.7%.
`C[N+](C)(C)CCOP(=O)(O)OP(=O)([O-])OC[C@H]1O[C@@H](n2ccc(N)nc2=O)[C@H](O)[C@@H]1O` gave an infection rate of 0.92%.
For `CN(C)CC/C=C1/c2ccccc2Sc2ccc(Cl)cc21`, the infection rate was 63.2%.
`COC(=O)N/N=C/c1c[n+]([O-])c2ccccc2[n+]1[O-]` has an infection rate of 117%.
`O=C(CCCN1CCN(c2ccccn2)CC1)c1ccc(F)cc1` has an infection rate of 111%.
`C[C@]12CCC(=O)C=C1C=C[C@@H]1[C@@H]2CC[C@@]2(C)[C@H]1CC[C@@]21CCC(=O)O1` gave an infection rate of 58.1%.
`CC[C@H]1OC(=O)[C@H](C)[C@@H](O[C@H]2C[C@@](C)(OC)[C@@H](O)[C@H](C)O2)[C@H](C)[C@@H](O[C@@H]2O[C@H](C)C[C@H](N(C)C)[C@H]2O)[C@](C)(O)C[C@@H](C)CN(C)[C@H](C)[C@@H](O)[C@]1(C)O` has an infection rate of 93%.

For quick reference, copied from above (block 3):
It gave 84.5% for remaining activity (MARK4 (Homo sapiens, UniProt Q96L34)).
For MAPK14 (Homo sapiens, UniProt Q16539): remaining activity read 90%.
TXK (Homo sapiens, UniProt P42681) — remaining activity: 79.9%.
The remaining activity was 90.4% (DCLK2 (Homo sapiens, UniProt Q8N568)).
